Experimental data pooled from the literature.
Lines come from different studies, so protocols differ. Numbers after ± are the reported error.
PCSK9: PCSK9 fragment (Homo sapiens)
indolicidin: indolicidin (Bos taurus, UniProt P33046)
Sequence of UniProt P33046 (whole entry, looked up): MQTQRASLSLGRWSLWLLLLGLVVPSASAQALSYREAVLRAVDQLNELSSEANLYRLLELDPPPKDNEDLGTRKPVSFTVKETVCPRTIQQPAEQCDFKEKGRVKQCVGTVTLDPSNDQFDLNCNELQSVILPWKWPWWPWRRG
T1: HNRNPR full length 1-636 (Homo sapiens); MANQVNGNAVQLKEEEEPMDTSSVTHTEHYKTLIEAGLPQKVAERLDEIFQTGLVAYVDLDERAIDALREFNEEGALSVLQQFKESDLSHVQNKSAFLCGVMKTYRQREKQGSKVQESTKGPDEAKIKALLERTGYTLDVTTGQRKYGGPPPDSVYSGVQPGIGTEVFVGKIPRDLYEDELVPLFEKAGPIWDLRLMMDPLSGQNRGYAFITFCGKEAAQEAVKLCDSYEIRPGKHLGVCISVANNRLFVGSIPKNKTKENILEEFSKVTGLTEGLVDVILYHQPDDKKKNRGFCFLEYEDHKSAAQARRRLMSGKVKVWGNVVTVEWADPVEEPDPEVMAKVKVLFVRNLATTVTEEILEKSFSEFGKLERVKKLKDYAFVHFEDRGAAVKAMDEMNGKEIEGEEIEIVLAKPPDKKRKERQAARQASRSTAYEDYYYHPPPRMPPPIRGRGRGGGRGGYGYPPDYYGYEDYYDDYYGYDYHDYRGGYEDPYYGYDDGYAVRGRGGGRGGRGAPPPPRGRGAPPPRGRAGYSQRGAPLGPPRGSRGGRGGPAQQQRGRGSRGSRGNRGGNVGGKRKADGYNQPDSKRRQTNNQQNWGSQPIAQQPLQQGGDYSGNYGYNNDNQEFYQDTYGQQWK
B1: erenumab; V domains shown; sequence looked up; VH QVQLVESGGGVVQPGRSLRLSCAASGFTFSSFGMHWVRQAPGKGLEWVAVISFDGSIKYSVDSVKGRFTISRDNSKNTLFLQMNSLRAEDTAVYYCARDRLNYYDSSGYYHYKYYGMAVWGQGTTVTVSS; VL QSVLTQPPSVSAAPGQKVTISCSGSSSNIGNNYVSWYQQLPGTAPKLLIYDNNKRPSGIPDRFSGSKSGTSTTLGITGLQTGDEADYYCGTWDSRLSAVVFGGGTKLTVL
B2: UGT1A9 (Homo sapiens, UniProt O60656); chain GKLLVVPMDGSHWFTMRSVVEKLILRGHEVVVVMPEVSWQLGRSLNCTVKTYSTSYTLEDLDREFKAFAHAQWKAQVRSIYSLLMGSYNDIFDLFFSNCRSLFKDKKLVEYLKESSFDAVFLDPFDNCGLIVAKYFSLPSVVFARGILCHYLEEGAQCPAPLSYVPRILLGFSDAMTFKERVRNHIMHLEEHLLCHRFFKNALEIASEILQTPVTEYDLYSHTSIWLLRTDFVLDYPKPVMPNMIFIGGINCHQGKPLPMEFEAYINASGEHGIVVFSLGSMVSEIPEKKAMAIADALGKIPQTVLWRYTGTRPSNLANNTILVKWLPQNDLLGHPMTRAFITHAGSHGVYESICNGVPMVMMPLFGDQMDNAKRMETKGAGVTLNVLEMTSEDLENALKAVINDKSYKENIMRLSSLHKDRPVEPLDLAVFWVEFVMRHKGAPHLRPAAHDLTWYQYHSLDVIGFLLAVVLTVAFITFKCCAYGYRKCLGKKGRVKKAHKSKTH
B3: enzyme (Bacillus pumilus, UniProt A8FFI9); chain EARSIAWSVDEFFKNREGTFVIQEVKEKSPWVYNKKRAKERFAPQSTFKVANALIGLQTGAVRDEYDIKYWDGVKREIDNWNRDHTLGSGMRDSVVWYYQAMARDIGEERMNHWVKAIHYGNKDISGGIDQFWLSSTLRISPIEQVRFLKQLYEETLPFDLKNMRTVKRMMVQEEEKHATLYGKTGSGSDIGWYVGFIKHEHKTYILATNIKGTGIEAKDITYRILKKYHLMEASV
Sequence of UniProt P16455 (whole entry, unmodified, looked up): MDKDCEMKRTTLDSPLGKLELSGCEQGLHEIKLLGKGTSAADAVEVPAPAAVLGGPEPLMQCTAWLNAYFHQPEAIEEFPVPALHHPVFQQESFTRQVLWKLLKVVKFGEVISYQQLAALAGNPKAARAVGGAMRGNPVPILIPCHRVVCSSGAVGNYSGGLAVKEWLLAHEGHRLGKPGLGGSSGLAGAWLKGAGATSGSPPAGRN
Sequence of UniProt P19525 (whole entry, looked up): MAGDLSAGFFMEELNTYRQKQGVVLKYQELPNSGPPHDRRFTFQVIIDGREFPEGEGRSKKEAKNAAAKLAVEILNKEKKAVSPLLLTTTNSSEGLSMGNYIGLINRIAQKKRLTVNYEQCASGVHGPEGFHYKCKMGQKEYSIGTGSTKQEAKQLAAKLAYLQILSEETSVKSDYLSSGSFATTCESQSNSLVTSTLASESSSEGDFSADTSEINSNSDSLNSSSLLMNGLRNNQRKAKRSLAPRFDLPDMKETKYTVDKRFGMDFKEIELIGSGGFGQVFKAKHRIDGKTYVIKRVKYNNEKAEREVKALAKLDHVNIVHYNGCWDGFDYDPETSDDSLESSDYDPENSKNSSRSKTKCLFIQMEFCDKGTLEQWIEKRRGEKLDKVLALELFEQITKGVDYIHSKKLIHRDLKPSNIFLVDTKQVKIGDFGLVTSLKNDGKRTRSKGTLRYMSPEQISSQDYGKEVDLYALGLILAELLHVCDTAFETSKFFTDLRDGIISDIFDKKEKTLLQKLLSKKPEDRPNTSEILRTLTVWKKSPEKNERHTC
Sequence of UniProt Q8TCS8 (whole entry, unmodified, looked up): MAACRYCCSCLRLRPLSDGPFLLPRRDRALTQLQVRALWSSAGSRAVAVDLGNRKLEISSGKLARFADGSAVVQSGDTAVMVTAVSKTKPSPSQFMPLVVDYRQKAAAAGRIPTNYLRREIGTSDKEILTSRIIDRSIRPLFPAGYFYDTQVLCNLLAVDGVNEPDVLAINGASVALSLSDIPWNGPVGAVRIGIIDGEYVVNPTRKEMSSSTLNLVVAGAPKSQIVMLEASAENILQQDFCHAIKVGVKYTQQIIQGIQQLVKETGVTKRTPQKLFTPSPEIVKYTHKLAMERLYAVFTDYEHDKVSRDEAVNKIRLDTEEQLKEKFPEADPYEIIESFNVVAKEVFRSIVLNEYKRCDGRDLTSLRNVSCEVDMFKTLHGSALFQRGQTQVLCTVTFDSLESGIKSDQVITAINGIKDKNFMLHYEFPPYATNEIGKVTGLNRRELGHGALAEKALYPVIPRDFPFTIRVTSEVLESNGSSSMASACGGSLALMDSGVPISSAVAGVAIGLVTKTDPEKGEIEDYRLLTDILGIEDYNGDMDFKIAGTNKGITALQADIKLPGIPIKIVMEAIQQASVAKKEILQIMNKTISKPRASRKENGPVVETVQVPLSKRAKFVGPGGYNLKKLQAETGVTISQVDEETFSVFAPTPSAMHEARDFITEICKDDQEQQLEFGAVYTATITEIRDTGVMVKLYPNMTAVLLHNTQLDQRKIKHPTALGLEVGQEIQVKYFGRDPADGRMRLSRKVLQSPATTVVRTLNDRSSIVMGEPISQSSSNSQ
Sequence of UniProt Q8MQJ9 (whole entry, looked up): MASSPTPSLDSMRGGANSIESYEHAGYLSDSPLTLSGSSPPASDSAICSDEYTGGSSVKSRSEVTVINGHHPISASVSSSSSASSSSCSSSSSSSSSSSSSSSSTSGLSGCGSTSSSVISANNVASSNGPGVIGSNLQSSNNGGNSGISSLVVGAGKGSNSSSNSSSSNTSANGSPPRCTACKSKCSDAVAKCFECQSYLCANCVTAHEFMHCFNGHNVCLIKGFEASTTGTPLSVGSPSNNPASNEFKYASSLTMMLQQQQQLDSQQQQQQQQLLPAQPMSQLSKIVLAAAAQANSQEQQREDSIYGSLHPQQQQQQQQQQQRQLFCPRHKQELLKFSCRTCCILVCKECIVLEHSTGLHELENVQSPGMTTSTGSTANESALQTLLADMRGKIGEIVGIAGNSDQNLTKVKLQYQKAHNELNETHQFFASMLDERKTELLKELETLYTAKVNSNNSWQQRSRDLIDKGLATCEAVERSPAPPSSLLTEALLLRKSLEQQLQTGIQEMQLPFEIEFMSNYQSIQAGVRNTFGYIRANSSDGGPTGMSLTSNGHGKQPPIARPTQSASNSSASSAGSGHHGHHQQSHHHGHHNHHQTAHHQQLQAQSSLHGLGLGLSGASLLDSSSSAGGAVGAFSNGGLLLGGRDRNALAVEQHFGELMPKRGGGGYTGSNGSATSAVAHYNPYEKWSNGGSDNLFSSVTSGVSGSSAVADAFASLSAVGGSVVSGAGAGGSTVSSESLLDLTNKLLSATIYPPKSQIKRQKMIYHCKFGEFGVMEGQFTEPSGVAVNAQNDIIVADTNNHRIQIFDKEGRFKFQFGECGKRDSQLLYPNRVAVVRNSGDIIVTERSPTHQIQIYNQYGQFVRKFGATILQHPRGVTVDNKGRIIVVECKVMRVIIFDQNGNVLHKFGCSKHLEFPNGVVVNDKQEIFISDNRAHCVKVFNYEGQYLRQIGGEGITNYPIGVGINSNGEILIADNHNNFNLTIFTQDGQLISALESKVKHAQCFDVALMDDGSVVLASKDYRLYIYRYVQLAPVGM
Sequence of UniProt P16422 (24-314, looked up): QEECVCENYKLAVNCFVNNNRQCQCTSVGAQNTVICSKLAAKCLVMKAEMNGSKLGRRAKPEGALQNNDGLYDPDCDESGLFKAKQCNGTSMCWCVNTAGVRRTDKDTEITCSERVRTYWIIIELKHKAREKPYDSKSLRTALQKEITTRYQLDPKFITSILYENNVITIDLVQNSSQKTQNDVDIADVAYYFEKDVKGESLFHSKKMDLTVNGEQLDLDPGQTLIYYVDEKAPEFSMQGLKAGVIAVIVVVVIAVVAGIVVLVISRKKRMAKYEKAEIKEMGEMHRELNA
Sequence of UniProt Q13308 (whole entry, looked up): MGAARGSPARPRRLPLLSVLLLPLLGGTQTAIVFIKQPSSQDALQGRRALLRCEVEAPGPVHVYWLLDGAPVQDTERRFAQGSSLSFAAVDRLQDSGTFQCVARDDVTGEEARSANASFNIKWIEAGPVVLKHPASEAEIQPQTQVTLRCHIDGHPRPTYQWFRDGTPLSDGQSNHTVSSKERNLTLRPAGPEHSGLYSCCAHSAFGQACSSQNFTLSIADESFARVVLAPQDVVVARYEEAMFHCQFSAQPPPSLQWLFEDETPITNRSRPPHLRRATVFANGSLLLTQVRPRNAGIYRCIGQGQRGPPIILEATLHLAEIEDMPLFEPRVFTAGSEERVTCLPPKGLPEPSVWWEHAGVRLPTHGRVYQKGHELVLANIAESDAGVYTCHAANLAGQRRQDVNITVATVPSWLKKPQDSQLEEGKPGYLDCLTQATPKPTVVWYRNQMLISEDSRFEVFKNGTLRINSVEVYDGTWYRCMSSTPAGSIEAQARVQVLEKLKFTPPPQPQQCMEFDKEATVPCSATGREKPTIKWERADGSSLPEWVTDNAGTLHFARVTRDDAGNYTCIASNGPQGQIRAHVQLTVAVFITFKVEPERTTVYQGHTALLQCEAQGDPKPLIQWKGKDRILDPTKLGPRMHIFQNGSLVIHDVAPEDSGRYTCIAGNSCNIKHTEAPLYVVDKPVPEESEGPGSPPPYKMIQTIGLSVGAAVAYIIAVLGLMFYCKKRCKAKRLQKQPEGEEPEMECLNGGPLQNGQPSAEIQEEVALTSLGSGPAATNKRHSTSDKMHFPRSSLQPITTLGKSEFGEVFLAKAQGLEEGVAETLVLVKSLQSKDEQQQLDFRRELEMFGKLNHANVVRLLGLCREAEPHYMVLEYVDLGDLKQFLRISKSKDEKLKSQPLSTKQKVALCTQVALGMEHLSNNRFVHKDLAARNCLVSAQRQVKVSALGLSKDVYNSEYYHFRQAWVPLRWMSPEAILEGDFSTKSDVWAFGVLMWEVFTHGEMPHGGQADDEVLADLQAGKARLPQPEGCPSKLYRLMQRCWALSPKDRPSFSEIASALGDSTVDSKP
Sequence of UniProt P27695 (whole entry, looked up): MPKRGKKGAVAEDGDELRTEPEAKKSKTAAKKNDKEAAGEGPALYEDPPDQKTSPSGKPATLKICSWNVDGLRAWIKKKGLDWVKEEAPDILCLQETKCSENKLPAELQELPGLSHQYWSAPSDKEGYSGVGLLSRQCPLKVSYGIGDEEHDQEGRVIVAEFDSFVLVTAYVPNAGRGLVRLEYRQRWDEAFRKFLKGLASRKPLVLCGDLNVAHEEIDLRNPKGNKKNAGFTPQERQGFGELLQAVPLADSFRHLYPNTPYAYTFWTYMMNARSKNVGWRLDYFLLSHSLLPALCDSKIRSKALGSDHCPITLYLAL

`TGCTACCGTTGTTTACCCTGCCACCTTCTGGAGTCCAGATGTAGGTAG (XNA; side-chain nucleotides, 3' inverted dT)` gave a Kd of 0.0068 µM (PCSK9; SPR).
`B1 (erenumab)` has a pKB of 5.74 (CALCR/RAMP1 on cells (Homo sapiens); cAMP production, antagonist, global Gaddum-Schild; antibody, HEK293S; with: amylin).
`CCUUGGACAUUUUGUGUCUAGUUGGUAGGGCAUAAUGCCCUUUUACA (ssRNA (Mus musculus))` gave a Kd of 0.0595 µM (Traf3ip2 fragment (Mus musculus); SPR).
`TPDYLMQLMNAKKLMSSLPNFSGIFNHLERLLDEEISRVRKDMYNDTLNGSTEK (Qki 14-67 C35S/D24A (Mus musculus, UniProt Q9QYS9))` gave a melting temperature of over 85 °C (itself; CD thermal melting; 50 µM).
`CTATTTCTCCTGGTAAGGAATCATCTGGTACATTTACATCATTACCACATATTGGACATTTTAATAGTACCATGATGGATCGAATAGAAATATAAAGTAAGCAGTTGAAAAGCTTTTATGAAATAAAAGGTTCGAAATTAGTACCAAACTCTAAGCACTATAGTACTGTTTGTACTTATAACGCCCTG (dsDNA)`: binding “binds” (lysM 1-140 (Sulfolobus acidocaldarius, UniProt Q4JAQ1); EMSA; double-stranded DNA, one strand shown).
For `CGAATCAGATTGGACCAGCCACGTTACTGATTCTTCTACCGTTTTTGCCCCCGGCACCTTCTGGAGTCCAGATGTAGGTAG (XNA; 8 side-chain-functionalized building blocks)`, the Kd was 0.098 µM (PCSK9; SPR).
`GGGAGACCUAGCCUCAUAUAAUCGUUGUCCAGAAUUGUAUAUAUUCGUAGCAUAAGUUUUCCAAACAUUAUUUUGUUGUCGAAAAUUGUACAUAAGCCAAUUAAGCCGCUAAUUCU (ssRNA)` gave a Kd of 0.137 ± 0.0368 µM (brat 756-1037 (Drosophila melanogaster, UniProt Q8MQJ9); MST).
With `GAGCGUAUCCGCUCUUUUUUUUUUUUUUUUUUUUUU (structured RNA; hairpin, 3' U20 tail)` the Kd was 0.581 ± 0.082 µM (PNPT1 46-783 D713Y/S484A (Homo sapiens, UniProt Q8TCS8); fluorescence polarization; Mg2+ 2 mM).
The Vmax/Km of `B2 (UGT1A9)` is reported as 2160 µL/min/mg (COc1ccc(/C=C\c2cc(OC)c(OC)c(OC)c2)cc1O; steady-state kinetics; pH 7.4, 37 °C).
`GAGUUGAGUUGAGUUGAGUUGAGUUGAGUUGAGUUGAGUUGAGUUGAGUUGAGUU (ssRNA; single strand)` gave a Kd of 0.23 ± 0.006 µM (mtrB full length assumed T30D (Bacillus subtilis, UniProt P19466); filter binding; with: L-tryptophan 1 mM).
The Kd of `DNA 1 TTCAGGTCAGAAGGGTTCTATCTCTGTTGGCCAGAATGTCCCTTTTATTACTGGTCGTGT / DNA 2 ACACGACCAGTAATAAAAGGGACATTCTGG (dsDNA; primer-template, 5' overhang, 5' amino C6 dT)` is reported as 0.047 ± 0.01 µM (RFC1/RFC2/RFC3/RFC4/RFC5 RFC1 284-861 (Saccharomyces cerevisiae); fluorescence anisotropy; double-stranded DNA; no maltose, with: ATPgS 0.5 mM).
With `CGCGCGCGTTTTCGCGCGCG (DNA hairpin; hairpin, 8 bp stem, TTTT loop)` the Kd was 42.2 µM (indolicidin; SPR).
`ATACCAGCTTATTCAATTAGTCACACTTAGAGTTCTAACTGCTGCGCCGCCGGGAAAATACTGTACGGTTAGATAGTAAGTGCAATCT (ssDNA; 5' amino linker, HPG conjugate)` gave a Kd of 0.00402 ± 0.0007 µM (PTK7 31-1070 (Homo sapiens, UniProt Q13308); radioligand saturation binding; MDA-MB-468; 37 °C, not purified).
`GGGGAAUCAAAAAUUUAUUUUUUACACGGAAACGAUGCCACAGUUGACUGAACCUGUCUUCUAACAGUAGUUAAUUGCCAGUAUUUCAAACAAGAUUUGAAAUACGAGUUUCCCAGAAUAAUUUAUUUGGACAGGAUAGGAAGUCCGAUUUCUGUGUUGUCUCAAACGAGGCGAUAGAAUUGGGAUGUCGAAGAAAGUCUACAUUAGAAUUCGAGCU (structured RNA (Saccharomyces cerevisiae); two hairpins)` gave a Kd of 0.0005 ± 0.0002 µM (CBF5/NOP10/GAR1/NHP2 (Saccharomyces cerevisiae); filter binding).
`AATAAATNATTTATT (dsDNA)` has a Kd of 0.0025 ± 0.0005 µM (protein full length assumed (Edwardsiella piscicida, UniProt A0AAQ3C0I8); MST; double-stranded DNA, one strand shown).
`TTGGGCNGGGCCTGGGCGGGGCC (G-quadruplex DNA (Homo sapiens); N7 tetrahydrofuran abasic site)` has a Kd of 0.057 µM (APEX1 full length assumed (Homo sapiens, UniProt P27695); fluorescence anisotropy; with: Sm3+ 10 mM).
For `CAGAGAGAGTTTTCTCTCTCTG (DNA hairpin; hairpin, 9 bp stem, TTTT loop)`, the Kd was 43.8 µM (indolicidin; SPR).
For `rat amylin`, “aggregation lag time” read 50 min (Islet amyloid polypeptide (IAPP, Homo sapiens, UniProt P10997); ThT fluorescence; 1 molar equivalents, pH 7.2, 2% HFIP).
`GGGTCATTTGGCGCCTTTCGATCC (dsDNA; blunt, O6-methylguanine)` gave a Kd of 8.2 ± 1.1 µM (MGMT 1-201 (Homo sapiens, UniProt P16455); EMSA; double-stranded DNA, one strand shown; 20 °C, monomer-equivalent).
For `ATCCAGAGTGACGCAGCACGCAGCACCCGTGGTAGTGTATCAGGGAGACACTACGTGATGCAGCTTGAAATGGACACGGTGGCTTAGT (DNA; intramolecular fold)`, the Kd was 0.0183 ± 0.0046 µM (CD8A fragment (Homo sapiens); flow cytometry; CD8+ T cells; apparent, not purified).
`CGTGTCAGACTTTTGUCUGACACG (DNA-RNA chimera hairpin; hairpin, nt 1-14 DNA, 15-24 RNA, T4 loop)` gave a Kd of 0.0005 ± 6e-05 µM (S9.6 scFv (Mus musculus); SPR).
The Kd of `GGGAGAGGCAAGUCGUUCGGUCGCGUUCGCUGUCGUCGCGUCUUGUAUGCCACUGUACCC / GGGTACAGTGGCATACAAGACGCGACGACAGCGAACGCGACCGAACGACTTGCCTCTCCC (chimeric DNA/RNA duplex; blunt, strand 2 RNA 23-38)` is reported as 5 ± 1 µM (EIF2AK2 1-184 (Homo sapiens, UniProt P19525); ITC; 20 °C, weak sites, two-site fit, less reliable).
With `GCCTGTTGTGAGCCTCCTAACCGTGCGTATTCGTACTGGAACTGATATCGATGTCCCCATGCTTATTCTTGTCTCCC (ssDNA; three predicted stem loops)` the Kd was 0.137 ± 0.022 µM (ITGA6/ITGB4 (Homo sapiens); flow cytometry; PC-3; not purified).
With `AATTACATTGATAGAATTATTAGTTTTCUAAUAAUUCUAUCAAUGUAAUU (DNA:RNA chimera; hairpin, DNA 1-27, RNA 28-50)` the Kd was 0.0006 ± 0.0001 µM (S9.6 scFv (Mus musculus); SPR).
`B3 (enzyme)` has a kcat/Km of 3300 ± 400 M⁻¹ s⁻¹ (C[C@@H](O)[C@H]1C(=O)N2C(C(=O)O)=C(S[C@@H]3CN[C@H](C(=O)N(C)C)C3)[C@H](C)[C@H]12; steady-state kinetics; pH 7).
For `CCGCCTCCGGGAGAGCTG (dsDNA; blunt)`, the Kd was 1.1 ± 0.08 µM (NR3C1 417-506 A458T (Homo sapiens, UniProt P04150); fluorescence polarization; double-stranded DNA, one strand shown; one-site fit).
For `GGGAGGGAGGGAGGGA (structured RNA; G-quadruplex)`, the Kd was 0.0049 ± 0.0033 µM (T1, HNRNPR full length 1-636 (Homo sapiens); fluorescence polarization; with: polyN competitor 0 µM).
With `CGATGTCATCG (dsDNA; blunt, O6-dG interstrand cross-link, 7-carbon)` the Kd was 9.67 ± 1.12 µM (MGMT full length assumed C145S (Homo sapiens, UniProt P16455); EMSA; double-stranded DNA, one strand shown; monomeric Kd).
For `AACAGAGGGACAAACGGGGGAAGATTTGACGTCGACGACA (ssDNA; two hairpins)`, the Kd was 5.48 ± 0.84 µM (EPCAM residues 24-314 (Homo sapiens, UniProt P16422); flow cytometry; HepG2; not purified).
`TGGGGAGGGTGGGGAGGGTGGGGAAGG (G-quadruplex DNA (Homo sapiens); parallel)` has a Kd of 0.166 µM (BG4 scFv; SPRi; K+ 100 mM).
`GGCGGTCCCAGCGAGGCCGCCGATTTTUCGGCGGCCUCGCUGGGACCGCC (DNA:RNA chimera; hairpin, DNA 1-27, RNA 28-50)` has a Kd of 0.0008 ± 0.0002 µM (S9.6 scFv (Mus musculus); SPR).
The tracer transported of `epidermal growth factor` is reported as about 30% (MDCK; transwell transcytosis; 3 h, 37 °C, basal to apical; baseline: bound tracer).

Repeated from above:
With `CGCGCGCGTTTTCGCGCGCG (DNA hairpin; hairpin, 8 bp stem, TTTT loop)` the Kd was 42.2 µM (indolicidin; SPR).
`ATACCAGCTTATTCAATTAGTCACACTTAGAGTTCTAACTGCTGCGCCGCCGGGAAAATACTGTACGGTTAGATAGTAAGTGCAATCT (ssDNA; 5' amino linker, HPG conjugate)` gave a Kd of 0.00402 ± 0.0007 µM (PTK7 31-1070 (Homo sapiens, UniProt Q13308); radioligand saturation binding; MDA-MB-468; 37 °C, not purified).
`GGGGAAUCAAAAAUUUAUUUUUUACACGGAAACGAUGCCACAGUUGACUGAACCUGUCUUCUAACAGUAGUUAAUUGCCAGUAUUUCAAACAAGAUUUGAAAUACGAGUUUCCCAGAAUAAUUUAUUUGGACAGGAUAGGAAGUCCGAUUUCUGUGUUGUCUCAAACGAGGCGAUAGAAUUGGGAUGUCGAAGAAAGUCUACAUUAGAAUUCGAGCU (structured RNA (Saccharomyces cerevisiae); two hairpins)` gave a Kd of 0.0005 ± 0.0002 µM (CBF5/NOP10/GAR1/NHP2 (Saccharomyces cerevisiae); filter binding).
